# Experimental data from different studies.
# Compare with care: the assays were run in different laboratories. ± marks the error that the study gave.
Compound,test,system,conditions,how to read,endpoint,value
CSCC[C@H](NC(=O)CNC(=O)[C@H](CC(=O)O)NC(=O)[C@@H](NC(=O)[C@@H](NC(=O)[C@@H](NC(=O)CNC(=O)[C@H](CCC(N)=O)NC(=O)[C@H](CCSC)NC(=O)[C@H](CC(=O)O)NC(=O)[C@H](C)NC(=O)[C@H](C)NC(=O)[C@@H](NC(=O)[C@H](CO)NC(=O)[C@@H](N)CC(C)C)[C@@H](C)O)C(C)C)C(C)C)[C@@H](C)O)C(=O)N[C@@H](C)C(=O)N[C@@H](CO)C(=O)NCC(=O)N[C@@H](CC(C)C)C(=O)N[C@@H](CC(=O)O)C(=O)N[C@@H](CCCCN)C(=O)N[C@@H](CC(=O)O)C(=O)N[C@@H](Cc1ccc(O)cc1)C(=O)N[C@@H](CC(C)C)C(=O)N[C@@H](CCCCN)C(=O)N1CCC[C@H]1C(=O)N[C@@H](CC(=O)O)C(=O)N[C@@H](CC(=O)O)C(=O)O,,"human, serum","intravenous, patients, infusion",,half-life,5.4 min
COc1nc(CC=C(C)CC=CC(C)=CC(C)C(OC2OC(CO)C(O)C(O)C2O)C(C)=CCO)c(C)c(O)c1OC (stereo not shown),,"C57BL/6 mice, acute kidney injury, kidney","2 mg/kg, 30 min",,concentration,15.3 ± 7.31 ng/mL
COC(=O)C[C@](O)(CCCC(C)(C)OC(C)=O)C(=O)O[C@@H]1C(OC)=C[C@]23CCCN2CCc2cc4c(cc2[C@H]13)OCO4,,"CD1 mouse, large intestine","subcutaneous, 1 mg/kg, 24 h, below quantification limit 1.00 ng/mL",,tissue concentration,not detected
CC[C@H](C)[C@H](NC(=O)[C@H](CCCCN)NC(=O)CNC(=O)[C@H](CC(C)C)NC(=O)[C@@H](NC(=O)[C@H](C)NC(=O)[C@H](CCCCN)NC(=O)CNC(=O)[C@H](C)NC(=O)CNC(=O)[C@H](CCCCN)NC(=O)[C@H](CCSC)NC(=O)[C@H](CCCCN)NC(=O)[C@@H](NC(=O)[C@H](Cc1c[nH]c2ccccc12)NC(=O)[C@H](CC(C)C)NC(=O)[C@H](CCC(N)=O)NC(=O)[C@H](CCCCN)NC(=O)[C@H](CC(C)C)NC(=O)[C@@H](N)CC(C)C)[C@@H](C)O)C(C)C)C(=O)N[C@@H](CCCCN)C(=O)NCC(=O)N[C@@H](CC(C)C)C(=O)N[C@@H](CC(C)C)C(=O)O,acrylamide quenching,"DOPC vesicles, 250 µM lipid","2 µM, together with: acrylamide",,Stern-Volmer constant,1.67 ± 0.19 M⁻¹
CC[C@H](C)[C@H](NC(=O)[C@H](CCC(=O)O)NC(=O)[C@H](CCC(=O)O)NC(=O)[C@H](Cc1ccccc1)NC(=O)[C@H](CC(=O)O)NC(=O)CNC(=O)[C@H](CC(N)=O)NC(=O)CNC(=O)CNC(=O)CNC(=O)CNC(=O)[C@@H]1CCCN1C(=O)[C@H](CCCNC(=N)N)NC(=O)[C@@H]1CCCN1C(=O)[C@H](N)Cc1ccccc1)C(=O)N1CCC[C@H]1C(=O)N[C@@H](CCC(=O)O)C(=O)N[C@@H](CCC(=O)O)C(=O)N[C@@H](Cc1ccc(O)cc1)C(=O)N[C@@H](CC(C)C)C(=O)O,LC-MS/MS,human plasma,"75 days, -80 °C, stability, nominal 30.0 ng/mL",,concentration,29.8 ± 0.3 ng/mL
CC(C)C[C@H](NC(=O)[C@H](CCCCN)NC(=O)[C@H](CCC(=O)O)NC(=O)[C@H](C)NC(=O)[C@@H](NC(=O)[C@H](CCCCN)NC(=O)[C@H](CC(=O)O)NC(=O)[C@H](Cc1ccc(O)cc1)NC(=O)[C@H](Cc1ccccc1)NC(=O)[C@H](C)NC(=O)[C@H](CCCCN)NC(=O)[C@H](CC(C)C)NC(=O)[C@H](Cc1c[nH]c2ccccc12)NC(=O)[C@@H](N)CC(=O)O)C(C)C)C(=O)N[C@@H](CCCCN)C(=O)N[C@@H](CCC(=O)O)C(=O)N[C@@H](C)C(=O)N[C@@H](Cc1ccccc1)C(=O)N1CCC[C@H]1C(=O)N[C@@H](CC(=O)O)C(=O)N[C@@H](Cc1c[nH]c2ccccc12)C(=O)N[C@@H](C)C(=O)N[C@@H](CCCCN)C(=O)N[C@@H](C)C(=O)N[C@@H](C)C(=O)N[C@@H](Cc1ccc(O)cc1)C(=O)N[C@@H](CC(=O)O)C(=O)N[C@@H](CCCCN)C(=O)N[C@@H](C)C(=O)N[C@@H](C)C(=O)N[C@@H](CCC(=O)O)C(=O)N[C@@H](CCCCN)C(=O)N[C@@H](C)C(=O)N[C@@H](CCCCN)C(=O)N[C@@H](CCC(=O)O)C(=O)N[C@@H](C)C(=O)N[C@@H](C)C(=O)O,,"cynomolgus monkey female, plasma","intravenous infusion, 25 mg/kg, day 1, 30 min infusion",,AUC(0-last),1540 µg·h/mL
C/C=C/C=C/C/C=C/CCCCCCCc1cccc(O)c1O,,"female Kunming mice, tumour-bearing, spleen","intravenous, 10 mg/kg, 0.5 h",,tissue concentration,11600 ± 1450 ng/g
COCCOCCOCCOc1ccc(/C=C/c2c(I)c(C)c3n2[B-](F)(F)[N+]2=C(C)C(I)=C(C)C2=C3c2cc(OC)cc(OC)c2)cc1,,DMSO,,baseline: methylene blue,fluorescence quantum yield,0.52
CN[C@](C)(C[18F])C(=O)O,,"SCID mouse U87 xenograft, heart","30 min, post injection",,tissue uptake,3.4 ± 1.3 %ID/g
c1ccc(C2(CCNC3CCC4(SCCS4)c4ccccc43)CCOC3(CCCC3)C2)nc1 (stereo not shown),,"male CD-1 mouse, plasma","intravenous, 0.3 mg/kg",,clearance,81.9 mL/min/kg
CC(CCC(=O)NCC(=O)O)C1CCC2C3CCC4CC(OC5OC(C(=O)O)C(O)C(O)C5O)CCC4(C)C3CC(O)C12C (stereo not shown),,"human, SLCO1B1 *15/*35, plasma","geometric mean, sex-adjusted",,plasma concentration,115 ng/mL
COc1ccc(F)cc1S(=O)(=O)Nc1cnc2c(c1)C(=O)NCCO2,,"C57BL/6J mice, plasma","oral, 0.3 mg/kg",,AUC(0-inf),123 ± 27 ng·h/mL
N=C(N)NCc1ccc(C(=O)NCCCC[C@H](NC(=O)N[C@@H](CCC(=O)O)C(=O)O)C(=O)O)cc1[131I],,"SCID mouse, PC-3 xenografts, lungs",4 h,,tissue uptake,0.62 ± 0.32 %ID/g
CC(C)[C@H](NC(=O)CNC(=O)[C@H](CCC(N)=O)NC(=O)[C@H](C)N)C(=O)O,,human,"intravenous infusion, 15 mg/kg/h, 2 h infusion",,subjects given concomitant medication,0%
CC(C)[C@H]1NC(=O)C[C@H]2/C=C/CCSSC[C@@H](NC1=O)C(=O)N[C@H](Cc1cccc3ccccc13)C(=O)NCC(=O)O2,,"nude mouse, blood","intravenous, 4 mg/kg",,AUC(0-inf),11.1 ng·h/mL
CC[C@H](C)[C@H](NC(=O)CNC(=O)[C@@H](NC(=O)[C@H](Cc1ccc(O)cc1)NC(=O)[C@@H](NC(=O)[C@H](CO)NC(=O)[C@@H](NC(=O)[C@H](C)NC(=O)[C@@H]1CCCN1C(=O)[C@@H](NC(=O)[C@H](Cc1ccccc1)NC(=O)[C@H](CCCCN)NC(=O)[C@H](CCC(=O)O)NC(=O)[C@H](Cc1ccc(O)cc1)NC(=O)[C@H](CC(C)C)NC(=O)[C@H](CC(=O)O)NC(=O)[C@H](CCCNC(=N)N)NC(=O)[C@H](CC(C)C)NC(=O)[C@H](CCCCN)NC(=O)[C@H](CCC(=O)O)NC(=O)[C@H](Cc1ccccc1)NC(=O)[C@@H](NC(=O)[C@H](CCC(=O)O)NC(=O)[C@H](CCCCN)NC(=O)[C@H](CC(C)C)NC(=O)[C@H](Cc1ccc(O)cc1)NC(=O)[C@@H](N)CC(=O)O)C(C)C)[C@@H](C)O)C(C)C)[C@@H](C)O)[C@@H](C)O)C(=O)N[C@@H](Cc1ccccc1)C(=O)N[C@H](C(=O)N[C@@H](CC(=O)O)C(=O)N[C@@H](CCC(N)=O)C(=O)N[C@H](C(=O)N[C@@H](CC(C)C)C(=O)N[C@@H](CO)C(=O)N[C@H](C(=O)N[C@@H](CC(C)C)C(=O)N[C@@H](CCCCN)C(=O)NCC(=O)N[C@@H](CCC(=O)O)C(=O)N[C@@H](CCC(=O)O)C(=O)O)C(C)C)C(C)C)[C@@H](C)O,,"C57BL/6 mice, female, plasma","intravenous, dose not given",,terminal half-life,540 min
N#Cc1c(O)c(Cl)c(Cl)c(C#N)c1Cl,,"healthy human volunteers, plasma","oral, dose not given, geometric mean, together with: rosuvastatin",,rosuvastatin AUC(0-24 h),62.6 ng·h/mL
CSCC[C@H](NC(=O)[C@H](Cc1c[nH]c2ccccc12)NC(=O)CNC(=O)[C@H](Cc1ccc(O)cc1)NC(=O)[C@H](C)NC(=O)[C@H](CCC(=O)O)NC(=O)[C@H](Cc1c[nH]cn1)NC(=O)[C@H](Cc1c[nH]cn1)NC(=O)[C@H](Cc1c[nH]cn1)NC(=O)[C@H](Cc1c[nH]cn1)NC(=O)[C@H](Cc1c[nH]cn1)NC(=O)[C@H](Cc1c[nH]cn1)NC(=O)CN1CCN(CC(=O)O)CCN(CC(=O)O)CCN(CC(=O)O)CC1)C(=O)N[C@@H](CC(=O)O)C(=O)N[C@@H](Cc1ccccc1)C(N)=O,,"MF1 nude mouse, male, HT29-CCK2R xenograft","intravenous, 0.2 µg, 4 h, 111In-labelled",baseline: tumour over kidney,tumour-to-kidney ratio,0.08
CC(C)C[C@@H](NC(=O)[C@@H](CCCNC(=N)N)NC(=O)[C@@H](Cc1c[nH]cn1)NC(=O)[C@@H](Cc1c[nH]c2ccccc12)NC(=O)[C@@H](Cc1c[nH]cn1)NC(=O)[C@@H](Cc1ccccc1)NC(=O)[C@H](NC(=O)[C@@H](Cc1ccc(O)cc1)NC(=O)CNC(=O)CNC(=O)CCOCCOCCOCCNC(=O)CN1CCN(CC(=O)O)CCN(CC(=O)O)CC1)[C@H](C)O)C(=O)N[C@H](CC(N)=O)C(=O)N1CCC[C@@H]1C(=O)O [gallium-68 labelled],PET,"human, right femur bone metastasis",,,SUVmax,2.8 SUV
CC[C@H](C)C(=O)N1CCC(NC(=O)Nc2ccc(OC(F)(F)F)c(F)c2)CC1,,healthy volunteers,"oral, 8 mg single dose, device site dermatitis",,subjects with dermatitis TEAE,0%
[2H]C([2H])([2H])C([2H])([2H])C([2H])([2H])OC(C(=O)OC1CCNCC1)(c1ccccc1)c1ccccc1,refers to: tonsillitis,healthy Japanese male,"oral, 18 mg, 16 days, multiple ascending dose",,adverse drug reactions,0%
O=C(CN1CCN(c2cc3c(cc2F)c(=O)c(C(=O)O)cn3C2CC2)CC1)Nc1ccc(Cl)cc1,two-compartment model,"BALB/c mice, female","intravenous, 3.75 mg/kg",,terminal half-life,391 min
CSCC[C@@H]1NC(=O)[C@@H]2CSSC[C@H](NC(=O)[C@H](CO)NC(=O)[C@H](C)N)C(=O)N[C@@H](CCCNC(=N)N)C(=O)N[C@@H]([C@@H](C)O)C(=O)N3CCC[C@H]3C(=O)N[C@@H](CCCCN)C(=O)N[C@@H](CC(=O)O)C(=O)N[C@H]3CSSC[C@H](NC(=O)[C@H](CCCCN)NC(=O)[C@H](CCCNC(=N)N)NC(=O)[C@H](CC(N)=O)NC1=O)C(=O)N[C@@H](CCCCN)C(=O)N[C@H]1CSSC[C@H](NC(=O)[C@@H]4CCCN4C(=O)[C@H](CC(=O)O)NC(=O)[C@H](C)NC3=O)C(=O)N[C@@H](C)C(=O)N[C@@H](CCCCN)C(=O)N[C@@H](CCC(=O)O)C(=O)N[C@@H]([C@@H](C)O)C(=O)NCC(=O)N[C@@H](CSSC[C@@H](C(N)=O)NC(=O)[C@H](CCCNC(=N)N)NC(=O)[C@H](CC(N)=O)NC1=O)C(=O)N1CCC[C@H]1C(=O)N[C@@H](Cc1ccc(O)cc1)C(=O)NCC(=O)N[C@@H](CCCCN)C(=O)N2,,"DA rat pristane-induced arthritis, serum","subcutaneous, 0.1 mg/kg once weekly, 21 days",,Glucose,121 mg/dL
CCCCCCCCCCCCCCCC(=O)N[C@@H](CCC(=O)NCCCC[C@H](NC(=O)[C@H](CC(=O)O)NC(=O)[C@H](CO)NC(=O)[C@@H](NC(=O)[C@H](Cc1ccccc1)NC(=O)[C@@H](NC(=O)CNC(=O)[C@H](CCC(=O)O)NC(=O)[C@H](CO)NC(=O)[C@@H](N)Cc1ccc(O)cc1)[C@@H](C)O)[C@@H](C)O)C(=O)N[C@@H](CO)C(=O)N[C@@H](CCCCN)C(=O)N[C@@H](Cc1ccc(O)cc1)C(=O)N[C@@H](CC(C)C)C(=O)N[C@@H](CC(=O)O)C(=O)N[C@@H](CO)C(=O)N[C@@H](CCC(N)=O)C(=O)N[C@@H](C)C(=O)N[C@@H](C)C(=O)N[C@@H](CCC(N)=O)C(=O)N[C@@H](CC(=O)O)C(=O)N[C@@H](Cc1ccccc1)C(=O)N[C@H](C(=O)N[C@@H](CCC(N)=O)C(=O)N[C@@H](Cc1c[nH]c2ccccc12)C(=O)N[C@@H](CC(C)C)C(=O)N[C@@H](CC(C)C)C(=O)N[C@@H](C)C(=O)NCC(=O)NCC(=O)N1CCC[C@H]1C(=O)N[C@@H](CO)C(=O)N[C@@H](CO)C(=O)NCC(=O)N[C@@H](C)C(=O)N1CCC[C@H]1C(=O)N1CCC[C@H]1C(=O)N1CCC[C@H]1C(=O)N[C@@H](CO)C(N)=O)C(C)C)C(=O)O,,cynomolgus monkeys,,,tolerability,not toxic
CCCCC[C@H]1C(=O)N(C)[C@H](C)C(=O)N(C)[C@@H](CCCCC)C(=O)N(C)[C@H](C)C(=O)N(C)[C@@H](CCCCC)C(=O)N(C)[C@H](C)C(=O)N(C)[C@@H](CCCCC)C(=O)N(C)[C@H](C)C(=O)N1C,,Caco-2,10 µM,,Papp A→B,1.99 ×10⁻⁶ cm/s
Cc1cccc2c1NC(=O)C2=Cc1ccc(-c2cccc(C(=O)N3CCCN(C)CC3)c2)o1 (mixture of isomers),,,"SGF pH 1.2, SIF pH 6.8",baseline: SGF over SIF,solubility ratio,~16 fold
C[S]1CC[S]2CC[P](CO)(CO)[99Tc+]12.[C-]#[O+].[C-]#[O+].[C-]#[O+],,CF-1 mouse,"intravenous, 4 h",,uptake in blood,0.4 %ID
CN(C)C(CNC(=O)Nc1cc(C(F)(F)F)ccc1N1CCOCC1)c1ccncc1 (stereo not shown),,"mouse, serum","intraperitoneal, 120 mg/kg single dose",,serum globulin,1.8 g/dL
